Assay results collected from several papers.
Each numbered part is a random draw from the data of one study; scales do not carry over between parts. Substitutions count along the parent as printed.

Block 1
Target: Ras GTPase-activating protein-binding protein 1, RRM domain (G3BP1, Homo sapiens, UniProt Q13283)
UniProt Q13283, sequence (whole entry, looked up): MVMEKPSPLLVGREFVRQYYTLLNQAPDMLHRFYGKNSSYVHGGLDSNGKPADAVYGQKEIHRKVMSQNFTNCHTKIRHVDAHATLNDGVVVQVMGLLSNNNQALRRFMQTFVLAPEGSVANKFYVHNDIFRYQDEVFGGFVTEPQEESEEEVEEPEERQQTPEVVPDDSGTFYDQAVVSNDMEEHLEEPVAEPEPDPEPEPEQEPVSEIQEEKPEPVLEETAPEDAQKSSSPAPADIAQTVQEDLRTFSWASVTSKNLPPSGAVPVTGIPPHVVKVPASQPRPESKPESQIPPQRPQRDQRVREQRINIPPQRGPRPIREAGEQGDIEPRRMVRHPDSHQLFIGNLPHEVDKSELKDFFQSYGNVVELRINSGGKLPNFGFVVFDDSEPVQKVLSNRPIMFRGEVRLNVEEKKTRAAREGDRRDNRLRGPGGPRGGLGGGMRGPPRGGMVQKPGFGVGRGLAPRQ
Method: RNA Bind-n-Seq
Molecule type: RNA
Sample: in vitro
Concentration: 1 µM
Notes: whole 134-nt RNA, ends assumed
Together with: 150 mM KCl
Relative to: input library
Direction: higher = stronger binding
Quantity: log2 enrichment
Constant ends, left off below: GGGAGUUCUACAGUCCGACGAUC … UGGAAUUCUCGGGUGUCAAGG
Strand = UGGGAGGUGGAUUUUGUGUAUUUUUUUAGCUCAUUUCCAGGGGUGGGAAUUUUUUUUUAAUAUGUGUCAUGAAUAAAGUUGUUUUUGAAA; result = 1.97
Strand = CGGCAGUAGCAGCAGCGCCGGGUCCCGUGCGGAGGUGCUCCUCGCAGAGUUGUUUCUCGAGCAGCGGCAGUUCUCACUACAGCGCCAGGA; result = 0.14
Strand = CCUCAAGUCCUGUGCUACACAUCGUAUGUACCGAAUCGGGAGGGAGGGAGGGAAAGUAUUAUGUUACGCCGUUCGGAUCUGCACUUCCAG; result = 1.08
Strand = UCCUGUGCUACACAUCGUAUGUACCGAAUCGGGUUUUUUUGGGAAAGGGUUUUUUUGGGAAAGUAUUAUGUUACGCCGUUCGGAUCUGCA; result = -0.0796
Strand = CAAGUCCUGUGCUACACAUCGUAUGUACCGAAUCGGGCCCCGGCCCCGGCCCCGGGAAAGUAUUAUGUUACGCCGUUCGGAUCUGCACUU; result = -1.44
Strand = GUCCUGUGCUACACAUCGUAUGUACCGAAUCAAACCCAAACCCCCAAACCCCCCCAAAAAAGUAUUAUGUUACGCCGUUCGGAUCUGCAC; result = -0.219
Strand = UGGCCCUGGUGGCAUGCGGGGAGGAAGAGGUGGCCUCAUGGAUCGUGGUGGUCCCGGUGGAAUGUUCAGAGGUGGCCGUGGUGGUGACAG; result = 1.7
Strand = UUUCUUCCCCCACAGUUCAUCCAUGAGCUCGGAUUUCCCACAUUACAACUUCAGGAUGCCUAAUAUUGGAUUCCAGAAUCUGCCUCUCAA; result = 0.224
Strand = UCCUGUGCUACACAUCGUAUGUACCGAAUCGGUUUUUUGGGGUUUUUUGGGGUUUUUUGGAAAGUAUUAUGUUACGCCGUUCGGAUCUGC; result = -0.108
Strand = CUUUGUAAUGGGAACUGCCUCUUUCCUGUUGUUGUUAAUGAAAAUGUCAGAAACCAGUUAUGUGAAUGAUCUCUCUGAAUCCUAAGGGCU; result = -0.0733
Strand = CUCAAGUCCUGUGCUACACAUCGUAUGUACCGAAUCGGGUUGGUUGGGUUGGGGAAAGUAUUAUGUUACGCCGUUCGGAUCUGCACUUCC; result = 0.0498
Strand = GCAGGAAGUAAAAACAAAUGGAAAUGCUUCGGAUAGUGGCAGGGGUGGGGAAAGCUAAGGAAAGGGUGGGAUGGGAGUGGGUAAAGAGUU; result = 1.07
Strand = AAGUCCUGUGCUACACAUCGUAUGUACCGAAUCAAAUUUUUAAAUUUAAACCCAAAAAAGUAUUAUGUUACGCCGUUCGGAUCUGCACUU; result = -0.874
Strand = UCAAGUCCUGUGCUACACAUCGUAUGUACCGAAUCGGGGUUGGGUUGGUUGGGGAAAGUAUUAUGUUACGCCGUUCGGAUCUGCACUUCC; result = 0.248

Block 2
Target: ABI1, truncated, D143A, DHFR fusion (Arabidopsis thaliana)
Method: DHFR PCA, deep sequencing
Sample: yeast
Notes: methotrexate growth selection, single substitutions
Together with: (+)-ABA 2500 µM
Relative to: wild-type fitted maximum
Direction: higher = stronger binding
Quantity: relative binding score
Starting sequence: PYL1, truncated, DHFR fusion (Arabidopsis thaliana); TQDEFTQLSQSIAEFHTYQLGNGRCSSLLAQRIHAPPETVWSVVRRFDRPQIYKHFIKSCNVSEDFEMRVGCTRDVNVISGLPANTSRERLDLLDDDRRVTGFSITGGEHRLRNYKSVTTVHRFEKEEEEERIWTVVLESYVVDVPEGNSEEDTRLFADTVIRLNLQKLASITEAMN
Change = I12R; result = 95.5%
Change = D92H; result = 87.1%
Change = Q167M; result = 96%
Change = E109Q; result = 108%
Change = W134C; result = 102%
Change = K116A; result = 101%
Change = K58P; result = 50.8%
Change = N149G; result = 82%
Change = G108P; result = 61.1%
Change = V40L; result = 48.1%
Change = S63I; result = 90%
Change = F15T; result = 80.5%
Change = A30W; result = 101%
Change = S140C; result = 38.6%
Change = L28P; result = 10.4%
Change = R111E; result = 73.6%
Change = T106S; result = 97%
Change = H110M; result = 83.6%
Change = R123W; result = 93.5%
Change = N61C; result = 95.4%
Change = D153V; result = 49.5%
Change = V78W; result = 27.2%
Change = V70I; result = 90.7%
Change = S26W; result = 95.7%
Change = E127M; result = 97.6%

Block 3
Molecule: PhoQ, residues 284 288 289 292 302 303 NLCILV
Method: Sort-seq
Refers to: YFP reporter
Sample: E. coli
Notes: PhoQ-PhoP variant library
Together with: 10 µM Mg2+
Relative to: high Mg2+ state
Direction: higher = stronger signaling
Quantity: fold induction
target = PhoP, residues 12 14 15 18 19 LHHYF (Escherichia coli, UniProt P23836); result = 35.9
target = PhoP, residues 12 14 15 18 19 TPWTL (Escherichia coli, UniProt P23836); result = 5.7
target = PhoP, residues 12 14 15 18 19 NFFVT (Escherichia coli, UniProt P23836); result = 21.3

Block 4
Target: Histone acetyltransferase KAT6A, winged helix 2, GST fusion (KAT6A, Homo sapiens, UniProt Q92794, residues 85-181)
Method: protein binding microarray
Molecule type: double-stranded DNA, one strand shown
Sample: in vitro
Concentration: not given
Notes: 8-mer, flanks averaged, mean of 2 arrays, mostly near background
Relative to: not given
Direction: higher = stronger binding
Quantity: E-score
Construct (chain): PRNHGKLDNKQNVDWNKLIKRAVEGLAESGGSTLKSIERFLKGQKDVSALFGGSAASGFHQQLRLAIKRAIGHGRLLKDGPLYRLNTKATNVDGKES
Strand = AACTCGAA; result = 0.0754
Strand = CAGCATTC; result = -0.0519
Strand = CAAGGGCC; result = 0.0644
Strand = AAGAACCC; result = -0.0487
Strand = ATTCCCGC; result = 0.132
Strand = GCGACTCA; result = -0.0494
Strand = GGTGTCTA; result = -0.0466
Strand = ATATCAGG; result = -0.0764
Strand = AGGATCGG; result = -0.104
Strand = AGGTGCCG; result = -0.0139
Strand = CATTATAC; result = -0.0601
Strand = GCCGAGAC; result = 0.042
Strand = ATCTTGAC; result = -0.0791
Strand = ATTTAGCA; result = 0.109
Strand = CGTTGGTA; result = 0.102
Strand = GCCTTAGA; result = 0.0105
Strand = GGAGAACA; result = -0.0486
Strand = CCAAGCTC; result = 0.0734
Strand = AGGCGGAT; result = 0.19
Strand = ACAGTCCT; result = -0.295
Strand = AAGTCTAT; result = -0.214
Strand = CAAGTACG; result = -0.213
Strand = AACCGGTG; result = -0.0812
Strand = CCCTATTA; result = -0.0504
Strand = AGAAAGGC; result = 0.101

Block 5
Target: Interferon regulatory factor 7, full length, phosphomimetic (IRF7, Homo sapiens, UniProt Q92985, residues 1-503, S101K/S471D/S472D/S475D/S476D/S477D/S483D/S484D/S487D)
UniProt Q92985, sequence (whole entry, unmodified, looked up): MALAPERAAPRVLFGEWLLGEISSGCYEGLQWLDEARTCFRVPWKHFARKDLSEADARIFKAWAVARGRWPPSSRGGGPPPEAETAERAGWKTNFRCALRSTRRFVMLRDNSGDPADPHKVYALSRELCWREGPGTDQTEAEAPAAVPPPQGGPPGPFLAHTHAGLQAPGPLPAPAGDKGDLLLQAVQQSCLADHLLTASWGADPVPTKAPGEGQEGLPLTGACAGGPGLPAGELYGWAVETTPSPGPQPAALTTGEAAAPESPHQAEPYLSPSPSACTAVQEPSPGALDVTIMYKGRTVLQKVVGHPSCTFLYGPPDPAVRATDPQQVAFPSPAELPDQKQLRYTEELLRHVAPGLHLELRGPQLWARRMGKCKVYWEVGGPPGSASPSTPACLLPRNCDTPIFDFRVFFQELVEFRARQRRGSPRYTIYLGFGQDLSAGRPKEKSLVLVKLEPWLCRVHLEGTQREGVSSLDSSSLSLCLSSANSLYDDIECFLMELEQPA
Method: protein-binding microarray
Molecule type: double-stranded DNA, one strand shown
Sample: in vitro
Concentration: 250 nM
Notes: 60-bp whole probe
Together with: salmon DNA 0.4 mg/ml
Relative to: random background probes
Direction: higher = stronger binding
Quantity: log fluorescence
Constant ends, left off below: GCCTAGCAC … GTCTTGATTCGCTTGACGCTGCTG
Strand = TTCGATTTCAGTCTCGATTAGTGCTAG; result = 2.05 z-score
Strand = GTAGATATCGGGTATCGATTAGTGCTA; result = 0.39 z-score
Strand = GACGGTTGCGGTTTCGGGACGTGCTAG; result = 4.52 z-score
Strand = GACGGTCTCAGTTTCGGGACGTGCTAG; result = 3.54 z-score
Strand = GACGGTATCGGGTATCGGCACGTGCTA; result = 0.293 z-score
Strand = TTAGGATTGCTTTTCCTTTAGTGCTAG; result = 1.08 z-score
Strand = GACGGACTGGGTTTTGGGACGTGCTAG; result = -0.579 z-score
Strand = TCATTTTTTGTAATCGAACTGTGCTAG; result = 0.652 z-score
Strand = TATGGCTTCAAGTAACTACAGTGCTAG; result = -0.445 z-score
Strand = GATGGCCTCTTGCTCAGCCCGTGCTAG; result = -0.918 z-score
Strand = GACGAGATCGGGACTGGAGACGTGCTA; result = -0.319 z-score
Strand = TTAGAACTGGAGTTTCGATTAGTGCTA; result = 7.37 z-score
Strand = GACGAATTGAGACTGGAGACGTGCTAG; result = -0.0151 z-score
Strand = TCATATTTAAGAACTATGACTGTGCTA; result = 0.659 z-score
Strand = TCATTATTCTAGCCTCCAACTGTGCTA; result = 1.16 z-score
Strand = TTAGATATCGACACTGGGTTAGTGCTA; result = -0.351 z-score
Strand = TTAGGACTGGACTATCGGTAAGTGCTA; result = -0.292 z-score
Strand = TTAGATTTTAGTTTCGATTAGTGCTAG; result = 9.86 z-score
Strand = GACGAACGGGGGACTGGAGACGTGCTA; result = 0.501 z-score
Strand = CTCTTCTTGCATCTGGGTATGTGCTAG; result = 1.47 z-score
Strand = TTAGGCTTCGGACTGGGTTAGTGCTAG; result = -0.0598 z-score
Strand = TTAGGTATCGGTATCGATTAGTGCTAG; result = 2.7 z-score

Block 6
Target: CCND3, cyclin fold, Cln2 fusion (human)
Method: yeast growth competition, sequencing
Sample: yeast
Notes: weak parent motif
Relative to: not given
Direction: higher = stronger binding
Quantity: normalised enrichment score
Starting sequence: E2F1 docking peptide (human); PPVKRRLDLETDH
Change = PPVKRRLDLEPDH [T11P]; result = 0.188
Change = PPVKRRLWLETDH [D8W]; result = 0.131
Change = PPVKRRFDLETDH [L7F]; result = 0.0197
Change = PPVSRRLDLETDH [K4S]; result = 0.105
Change = PPVKRRGDLETDH [L7G]; result = 0.0818
Change = LPVKRRLDLETDH [P1L]; result = 0.167
Change = PPVKRTLDLETDH [R6T]; result = 0.209
Change = PPVKRRDDLETDH [L7D]; result = 0.144
Change = PPVKRRLDLETVH [D12V]; result = 0.0981
Change = PPVWRRLDLETDH [K4W]; result = 0.135
Change = PPVKRELDLETDH [R6E]; result = 0.17
Change = PPVKRRLTLETDH [D8T]; result = 0.203
Change = PPVKRRWDLETDH [L7W]; result = 0.155
Change = PLVKRRLDLETDH [P2L]; result = 0.0795
Change = PPVKRRLELETDH [D8E]; result = 0.0299
Change = PFVKRRLDLETDH [P2F]; result = 0.197
Change = KPVKRRLDLETDH [P1K]; result = 0.162
Change = PEVKRRLDLETDH [P2E]; result = 0.138
Change = TPVKRRLDLETDH [P1T]; result = 0.0956
Change = PPVKRRLDLETDD [H13D]; result = 0.112
Change = PPVHRRLDLETDH [K4H]; result = 0.17
Change = PPCKRRLDLETDH [V3C]; result = 0.145
Change = PPVKIRLDLETDH [R5I]; result = 0.0619
Change = PPVKRRLDLETRH [D12R]; result = 0.0485
Change = WPVKRRLDLETDH [P1W]; result = 0.242
